Assay results collected from several papers.
± gives the spread as reported.
Cell line: HepG2

SMILES | assay | setting | how to read | measurement | result
CC(=O)O[C@@H]1CC[C@@]2(C)C(CC[C@]3(C)C2C(=O)C=C2C4[C@@H](C)[C@H](C)CC[C@]4(C)CC[C@]23C)[C@@]1(C)C(=O)N/N=C1/C(=O)Nc2ccccc21 (stereo partly drawn) | cell growth or viability, MTT | 25 µM, 24 h |  | viability | 93%
CCCCCCCCCCCCCNCC(=O)N(CC(=O)N(CCCCN)CC(=O)N(CCN)CC(=O)N(CC(N)=O)c1cccc2ccccc12)c1cccc2ccccc12 | cytotoxicity, MTT | 72 h |  | TD50 | 118 ± 19 µg/mL
CC(=O)N[C@H]1[C@@H](OCc2cn(CC(=O)N3C[C@@H](ONC(=O)[C@@H]4C[C@H](ON5C(=O)c6ccccc6C5=O)CN4C(=O)Cn4cc(CO[C@H]5O[C@H](CO)[C@H](O)[C@H](O)[C@H]5NC(C)=O)nn4)C[C@H]3C(=O)NO[C@H]3C[C@@H](C(=O)NO[C@H]4C[C@@H](C(=O)OC(C)(C)C)N(C(=O)Cn5cc(CO[C@H]6O[C@H](CO)[C@H](O)[C@H](O)[C@H]6NC(C)=O)nn5)C4)N(C(=O)Cn4cc(CO[C@H]5O[C@H](CO)[C@H](O)[C@H](O)[C@H]5NC(C)=O)nn4)C3)nn2)O[C@H](CO)[C@H](O)[C@@H]1O | MTS | concentration not given, 72 h |  | cytotoxicity | not toxic
CC(=O)O[C@@H]1CC[C@@]2(C)C(CC[C@]3(C)C2C(=O)C=C2C4[C@@H](C)[C@H](C)CC[C@]4(C)CC[C@]23C)[C@@]1(C)C(=O)OCc1cn(CC(=O)OC2CC(C)CCC2C(C)C)nn1 (stereo partly drawn) | cell growth or viability, MTT | 25 µM, 24 h |  | viability | 85%
COc1cccc2c(-c3ccc(O)c4c3CCNC4)ccc(O)c12 | cytotoxicity |  |  | EC50 | 32.3 ± 5.6 µM
COC1=CC(c2ccc[nH]2)=NC1=CNC12CC3CC(CC(C3)C1)C2 | cell growth or viability, resazurin |  |  | IC50 | 3.3 µM
CCCCCCCCCCCCCNCC(=O)N(CC(=O)N(CCCCN)CC(=O)N(CCN)CC(=O)N(CC(N)=O)Cc1cccs1)Cc1cccs1 | cytotoxicity, MTT | 72 h |  | TD50 | 154 ± 47 µg/mL
COC1=CC(c2ccc[nH]2)=NC1=CNC1CCCCCCC1 | cell growth or viability, resazurin |  |  | IC50 | 9.7 µM
O=C(Nc1nc2ccccc2s1)C1CCN(S(=O)(=O)c2ccc(F)c(Cl)c2)CC1 | MTT | up to 30 µM, 24 h |  | cytotoxicity | not toxic
CC(=O)O[C@@H]1CC[C@@]2(C)C(CC[C@]3(C)C2C(=O)C=C2C4[C@@H](C)[C@H](C)CC[C@]4(C)CC[C@]23C)[C@@]1(C)C(=O)OCc1cn(CC(=O)Oc2cc(C)ccc2C(C)C)nn1 (stereo partly drawn) | cell growth or viability, MTT | 25 µM, 24 h |  | viability | 93%
CCOC(=O)c1cn(-c2nc(C(F)(F)F)n[nH]2)nn1 | MTT | up to 500 µM |  | cytotoxicity | not toxic
CCC1=C(C)C(=CNC23CC4CC(CC(C4)C2)C3)N=C1c1ccc[nH]1 | cell growth or viability, resazurin |  |  | IC50 | 3.3 µM
COc1cc(O)c(-c2cc(-c3cc(-c4c(O)cc(OC)c5c4C[C@@H](C)N[C@@H]5C)c4cc(C)cc(OC)c4c3O)c(O)c3c(OC)cc(C)cc23)c2c1[C@@H](C)N[C@H](C)C2 | cytotoxicity |  |  | EC50 | 30.5 ± 9 µM
CC1=CC(OC(=O)c2ccccc2)C2(COC(=O)c3ccccc3)CCC(=C(C)C)C2C(O)CC2(C)OC2CC1 (stereo not drawn) | cell growth or viability, CCK-8 | 30 µM, 24 h |  | viability | 90.7%
C1=CC(c2ccc[nH]2)=NC1=CNC12CC3CC(CC(C3)C1)C2 | cell growth or viability, resazurin |  |  | IC50 | 70 µM
COC1C=COC2(C)Oc3c(C)c(O)c4c(c3C2=O)C2=NC3(CCN(CC(C)C)CC3)NC2=C(NC(=O)C(C)=CC=CC(C)C(O)C(C)C(O)C(C)C(OC(=O)Nc2cccnn2)C1C)C4=O (stereo not drawn) |  | 48 h | reference: CC50 over MIC | selectivity index | 1740
CCCCCCCCCCCCCNCC(=O)N(CC(=O)N(CCCCN)CC(=O)N(CCN)CC(=O)N(CC(N)=O)CC1CCCO1)CC1CCCO1 (stereo not drawn) | cytotoxicity, MTT | 72 h |  | TD50 | > 200 µg/mL
O=C(CCl)Sc1nnc(-c2n[nH]c(=O)c3ccccc23)o1 | qRT-PCR, measured: TXNRD1 | IC50, 8 h | reference: untreated | mRNA level | 0.93 ± 0.09 fold
COC(=O)C1C(c2nc3ncccc3[nH]2)=Cc2cc3c(cc2C1c1cc(OC)c(OC)c(OC)c1)OCO3 (stereo not drawn) | cell growth or viability, resazurin | 48 h |  | CC50 | 95 µM
COc1cc(C)c(-c2ccc(O)c3c2C[C@@H](C)N[C@@H]3C)c2cccc(O)c12 (single isomer, unassigned) | cytotoxicity |  |  | EC50 | > 50 µM
COC(=O)CC[C@@H](NC(=O)[C@@H](Cc1ccc(OP(=O)(O)O)cc1)NC(=O)[C@@H](Cc1ccccc1)NC(=O)[C@@H](Cc1ccccc1)NC(=O)Cc1ccc2ccccc2c1)C(=O)OC |  | 200 µM, 24 h |  | remaining compound | 46.9%

SMILES | assay | setting | how to read | measurement | result
CC(C)=CCc1c(O)cc(CO)cc1O | cell growth or viability, CCK-8 | 30 µM, 24 h |  | viability | 89.4%
CC(=O)O[C@@H]1CC[C@@]2(C)C(CC[C@]3(C)C2C(=O)C=C2C4[C@@H](C)[C@H](C)CC[C@]4(C)CC[C@]23C)[C@@]1(C)c1nnc(SCC(=O)Oc2cc(C)ccc2C(C)C)o1 (stereo partly drawn) | cell growth or viability, MTT | 25 µM, 24 h |  | viability | 95%
COC(=O)c1[nH]c(C(=O)OC)c2c1-c1c[nH]c3ccc(Cl)c(c13)[C@]21C=Nc2ccc(Cl)cc21 | cell growth or viability, ATP luminescence | 72 h |  | CC50 | > 10 µM
COc1cccc2c(-c3ccc(O)c4c3C[C@@H](C)N[C@@H]4C)c(C)cc(O)c12 | cytotoxicity |  |  | EC50 | 25 ± 11.6 µM
CC(=O)O[C@@H]1CC[C@@]2(C)C(CC[C@]3(C)C2C(=O)C=C2C4[C@@H](C)[C@H](C)CC[C@]4(C)CC[C@]23C)[C@@]1(C)C(=O)OCC(=O)O[C@@H]1C[C@H](C)CC[C@H]1C(C)C (stereo partly drawn) | cell growth or viability, MTT | 25 µM, 24 h |  | viability | 90%
C[C@@H]1O[C@@H](O[C@H]2[C@H](O[C@H]3CC[C@@]4(C)C(CC[C@]5(C)C4CC=C4C6CC(C)(C)CC[C@]6(C(=O)O[C@@H]6O[C@H](CO)[C@@H](O)[C@H](O)[C@H]6O)CC[C@]45C)[C@]3(C)CO)OC[C@H](O)[C@@H]2O)[C@H](O)[C@H](O[C@@H]2OC[C@@H](O)[C@H](O)[C@H]2O)[C@H]1O (stereo partly drawn) | cell growth or viability, CCK-8 | 30 µM, 24 h |  | viability | 87.4%
C[C@@]1(CO)CC[C@]2(C(=O)O)CC[C@]3(C)C(=CCC4[C@@]5(C)C[C@@H](O)[C@H](O)[C@@](C)(CO)C5CC[C@]43C)C2C1 (stereo partly drawn) | cell growth or viability, MTT | 72 h |  | IC50 | > 100 µM
COc1cccc(/C=N\NC(=O)[C@]2(C)C3CC[C@]4(C)C(C(=O)C=C5C6[C@@H](C)[C@H](C)CC[C@]6(C)CC[C@]54C)[C@@]3(C)CC[C@H]2OC(C)=O)c1 (stereo partly drawn) | cell growth or viability, MTT | 25 µM, 24 h |  | viability | 93%
COc1ccccc1NC(=O)OC1C(C)C(OC)C=COC2(C)Oc3c(C)c(O)c4c(c3C2=O)C2=NC3(CCN(CC(C)C)CC3)NC2=C(NC(=O)C(C)=CC=CC(C)C(O)C(C)C(O)C1C)C4=O (stereo not drawn) |  | 48 h | reference: CC50 over MIC | selectivity index | 4130
CC(=O)O[C@@H]1CC[C@@]2(C)C(CC[C@]3(C)C2C(=O)C=C2C4[C@@H](C)[C@H](C)CC[C@]4(C)CC[C@]23C)[C@@]1(C)C(=O)N/N=C\C=Cc1ccccc1 (stereo partly drawn) | cell growth or viability, MTT | 25 µM, 24 h |  | viability | 91%
CC(C)=CCc1c(O)cc2c(c1O)C(=O)OC2 | cell growth or viability, CCK-8 | 30 µM, 24 h |  | viability | 91.1%
COc1ccc(/C=N\NC(=O)[C@]2(C)C3CC[C@]4(C)C(C(=O)C=C5C6[C@@H](C)[C@H](C)CC[C@]6(C)CC[C@]54C)[C@@]3(C)CC[C@H]2OC(C)=O)cc1 (stereo partly drawn) | cell growth or viability, MTT | 25 µM, 24 h |  | viability | 89%
COc1cccc2c(-c3ccc4c(c3O)[C@@H](C)N[C@H](C)C4)c(CO)cc(OC)c12 | cytotoxicity |  |  | EC50 | 45.5 ± 12.1 µM
CCC1=CC(c2ccc[nH]2)=NC1=CNC12CC3CC(CC(C3)C1)C2 | cell growth or viability, resazurin |  |  | IC50 | 6.1 µM
COc1cc([C@@H]2OC[C@@H]3[C@H]2CO[C@H]3c2cc(OC)c(O)c(OC)c2)cc(OC)c1O | cell growth or viability, CCK-8 | 30 µM, 24 h |  | viability | 80.2%
CC(C)C1=CC(=CNC23CC4CC(CC(C4)C2)C3)N=C1c1ccc[nH]1 | cell growth or viability, resazurin |  |  | IC50 | 18.5 µM
COC1C=COC2(C)Oc3c(C)c(O)c4c(c3C2=O)C2=NC3(CCN(CC(C)C)CC3)NC2=C(NC(=O)C(C)=CC=CC(C)C(O)C(C)C(O)C(C)C(OC(=O)Nc2cscn2)C1C)C4=O (stereo not drawn) |  | 48 h | reference: CC50 over MIC | selectivity index | 823
CCC1=C(C)C(c2ccc[nH]2)=NC1=CNC1CCCCCC1 | cell growth or viability, resazurin |  |  | IC50 | 15.8 µM
COc1ccc(C(=O)/C=C(\O)C(F)(F)C(F)(F)F)c(O)c1 | cell viability | 24 h, 10% FBS |  | EC50 | ~10 µM
CC(C)=C1CC[C@]2(COC(=O)c3ccccc3)[C@@H](OC(=O)c3ccccc3)/C=C(\C)CC[C@@H]3O[C@@]3(C)C[C@@H](OC(=O)c3cccnc3)[C@@H]12 | cell growth or viability, CCK-8 | 20 µM, 24 h |  | viability | 93.1%
COC1=CC(c2ccc[nH]2)=NC1=CNC1CCCCCC1 | cell growth or viability, resazurin |  |  | IC50 | 10.1 µM

Excerpt of the above:
SMILES | assay | setting | how to read | measurement | result
CC(=O)O[C@@H]1CC[C@@]2(C)C(CC[C@]3(C)C2C(=O)C=C2C4[C@@H](C)[C@H](C)CC[C@]4(C)CC[C@]23C)[C@@]1(C)C(=O)N/N=C1/C(=O)Nc2ccccc21 (stereo partly drawn) | cell growth or viability, MTT | 25 µM, 24 h |  | viability | 93%
C1=CC(c2ccc[nH]2)=NC1=CNC12CC3CC(CC(C3)C1)C2 | cell growth or viability, resazurin |  |  | IC50 | 70 µM
CC(=O)O[C@@H]1CC[C@@]2(C)C(CC[C@]3(C)C2C(=O)C=C2C4[C@@H](C)[C@H](C)CC[C@]4(C)CC[C@]23C)[C@@]1(C)C(=O)OCc1cn(CC(=O)Oc2cc(C)ccc2C(C)C)nn1 (stereo partly drawn) | cell growth or viability, MTT | 25 µM, 24 h |  | viability | 93%
